Experimental data collected from several papers.
Protocols differ between the studies behind these lines. Values joined by “and” are separate records of one study, mostly repeats; a detail may differ. ± gives the spread as reported.

O=C(O)c1ccccc1O
CSF concentration (human CSF; concentration not given, mean): not detected

C[C@@H](NC(=O)N1C(=O)[C@H](Cc2ccnc(N)c2)[C@H]1C(=O)O)C1CCCCC1
time to steady state (UPLC-MS/MS; healthy adult Chinese volunteers, plasma; continuous intravenous infusion, 1.0 mg/kg/h, day 1 of 5-day infusion, median): 1.5 h

Cc1noc(C)c1-c1cc(C(O)(c2ccccn2)c2ccccn2)c2nc(C3CC3)[nH]c2c1
Ctau (human patients, plasma; oral, 4 mg, cycle 1 day 8, monotherapy): 168 ng/mL

CNC(=O)c1ccc(-c2cnc3ncc(Cc4ccc5ncccc5c4)n3n2)cc1F
AST increased dose reduction/interruption (Japanese patients; oral, 400 mg, any grade): 2%

CCOc1c([C@H](C)n2nc(C)c3c(N)ncnc32)cc(Cl)c(F)c1[C@@H]1CNC(=O)C1
share of patients (item: QTcF > 500 ms; previously treated B-cell malignancy; oral, dose not given, baseline QTcF ≤450 ms, all doses): 0%

C[C@@H](Nc1cc(F)cc(F)c1)c1cc(C(=O)N(C)C)cc2c(=O)cc(N3CCOCC3)oc12
treatment-related serious adverse events (item: autoimmune colitis; patients with advanced solid tumours; oral, dose not given, dose finding phase I): 0%

CCCCCNCc1ccc(CNC(=O)c2csc3nc[nH]c(=O)c23)cc1
EC50 (haemolysis; human red blood cells; 1 h, 37 °C): > 100 µM

C[C@H]1[C@H]2N(C(=O)CN(C)N2C(=O)NCc2ccccc2)[C@@H](Cc2ccc(OP(=O)(O)O)cc2)C(=O)N1Cc1cccc2cccnc12
plasma concentration (human, plasma; intravenous infusion over 4 h, 140 mg/m2, 24 h after dosing): 0 ng/mL

CC(C)C[C@H](NC(=O)[C@H](CC(C)C)NC(=O)[C@H](Cc1c[nH]c2ccccc12)NC(=O)[C@H](CCC(=O)O)NC(=O)[C@@H](NC(=O)[C@H](Cc1ccccc1)NC(=O)[C@H](CCC(=O)O)NC(=O)[C@H](CCCCNC(=O)COCCOCCNC(=O)COCCOCCNC(=O)CC[C@H](NC(=O)CCCCCCCCCCCCCCCCCCC(=O)O)C(=O)O)NC(=O)[C@H](C)NC(=O)[C@H](CCCCN)NC(=O)[C@H](CCCCN)NC(=O)[C@H](CCC(=O)O)NC(=O)[C@H](CC(=O)O)NC(=O)[C@H](CC(C)C)NC(=O)[C@H](Cc1ccc(O)cc1)NC(=O)[C@H](CCCCN)NC(=O)[C@H](CO)NC(=O)[C@H](Cc1ccc(O)cc1)NC(=O)[C@H](CC(=O)O)NC(=O)[C@H](CO)NC(=O)[C@@H](NC(=O)[C@H](Cc1ccccc1)NC(=O)[C@@H](NC(=O)CNC(=O)[C@H](CCC(N)=O)NC(=O)C(C)(C)NC(=O)[C@@H](N)Cc1c[nH]cn1)[C@@H](C)O)[C@@H](C)O)C(C)C)C(=O)N[C@@H](CCC(=O)O)C(=O)NCC(=O)NCC(=O)N1CCC[C@H]1C(=O)N[C@@H](CO)C(=O)N[C@@H](CO)C(=O)NCC(N)=O
Cmin,ss (human, plasma; subcutaneous, 16 mg weekly, week 20, cohorts 1 and 2): 2940 ng/mL

CC(C)(C(=O)N1CCOc2c(C#N)cncc2C1)C(F)F
subjects with adverse event (item: nervous system disorders; human; oral, 10 mg, CSF pharmacokinetic cohort): 66.7%

N#Cc1ccc2c(c1)[C@H]1CCCN(C(=O)c3ccc4[nH]cnc4c3)[C@H]1C2
androstenedione level (human, male; 10 mg, end of trial): 5.9 nmol/L

CNC(=O)c1ccc(-c2cnc3ncc(Cc4ccc5ncccc5c4)n3n2)cc1F
AUC(0-inf) (human, plasma; oral, 200 mg, mean): 5630 ng·h/mL

COc1cc2nccc(Oc3ccc(NC(=O)c4cc5c(n(-c6ccccc6)c4=O)CCCC5=O)nc3)c2cc1OC
patients with decreased platelet (human, relapsed/refractory AML; oral, 10 mg once daily, grade ≥3, any causality): 14.3%

Cc1ccc([C@@H]2O[C@H](CO)[C@@H](O)[C@H](O)[C@H]2O)cc1Cc1ccc(-c2ccc(F)cc2)s1
urinary magnesium excretion change (Japanese type 2 diabetes patients; 200 mg, day 1, 24 h urine collection; relative to: baseline): -30.2 mg

CCN1CCN(Cc2ccc(Nc3ncc(F)c(-c4cc(F)c5nc(C)n(C(C)C)c5c4)n3)nc2)CC1
peripheral volume of distribution (population PK model; human, plasma; oral, dose not given): 174 L

O=C(CCCN1CCC(O)(c2ccc(Cl)cc2)CC1)c1ccc(F)cc1
heart rate (male Hartley guinea pigs, anaesthetized; intravenous, 1 mg/kg group, baseline before infusion): 226 ± 0.4 beats/min

NC1(C(=O)N[C@@H](CCO)c2ccc(Cl)cc2)CCN(c2nc[nH]c3nccc2-3)CC1
incidence of Anaemia (metastatic CRPC patients; 320 mg b.i.d., grade 3 to 4, treatment-related, added: enzalutamide 160 mg daily): 0%

COc1ccc2c(c1)CN(C(=O)CCN1CCC(Cc3ccccc3)CC1)CC[S@@+]2[O-]
diastolic blood pressure (telemetry; conscious dog; intravenous, 8 mg/kg, 24 h): 81 ± 15 mmHg

CNc1ccc(-c2nc3ccc(O)cc3s2)cc1 [carbon-11 labelled]
uptake (ex vivo biodistribution; normal B6SJL mice, caudate nucleus; intravenous, 30 min): 0.169 ± 0.041 SUV

CNC(=O)c1cc(Oc2ccc(NC(=O)Nc3cc(C(C)(C)C)nn3-c3ccc4ncccc4c3)c(F)c2)ccn1
patients with musculoskeletal disorders (patients; oral, dose not given, cycles 1 and 2, Medium AUC subgroup): 50%

CNC(=O)c1ccc(-c2cnc3ncc(Cc4ccc5ncccc5c4)n3n2)cc1F
peripheral edema incidence (all grades) (CTCAE v4.0, any causality; human gastric cancer patients; oral, 600 mg twice daily, expansion cohort at RP2D): 44%

CC(C)n1c(Nc2cccnc2)nc2cnc(Nc3ccc(N4CCN(C)CC4)cc3)nc21
incidence of CPK increased TEAE (healthy male humans; oral, dose not given, drug interaction study, all arms): 11.9%

CC(C(=O)NCC(=O)NCC(CNC(=O)CNC(=O)C(C)N1CCN(CC(=O)[O-])CCN(CC(=O)[O-])CCN(CC(=O)[O-])CC1)(CNC(=O)CNC(=O)C(C)N1CCN(CC(=O)[O-])CCN(CC(=O)[O-])CCN(CC(=O)[O-])CC1)CNC(=O)CNC(=O)C(C)N1CCN(CC(=O)[O-])CCN(CC(=O)[O-])CCN(CC(=O)[O-])CC1)N1CCN(CC(=O)[O-])CCN(CC(=O)[O-])CCN(CC(=O)[O-])CC1.[Gd+3].[Gd+3].[Gd+3].[Gd+3] (centres unmarked)
lanthanide tissue concentration (cynomolgus monkey, liver; dose not given, day 5): 5.7 ± 2.7 nmol/g

COc1cc(N)c(Cl)cc1C(=O)NC1CCN(CCCOc2ccc(F)cc2)CC1OC (centres unmarked)
heart rate (male Hartley guinea pigs, anaesthetized; intravenous, 0.1 mg/kg over 10 min, after infusion): 228 ± 0.9 beats/min

COc1ccc([C@@H](O)c2cc(-c3ncnc4cc(N5CCOCC5)ccc34)c(F)cc2Cl)nn1
drug-related nausea incidence (locally advanced rectal cancer patients; 100 mg, added: capecitabine and radiotherapy): 33%

O=C1Cc2cc(CCN3CCN(c4nsc5ccccc45)CC3)c(Cl)cc2N1
heart rate (male Hartley guinea pigs, anaesthetized; intravenous, 0.3 mg/kg group, baseline before infusion): 194 ± 0.6 beats/min

Cc1nc2cccc(OCC(C)(C)C(=O)NC(C)C)c2c(N)c1C(=O)O
micronucleated normochromatic erythrocytes (male CD-1 mouse, bone marrow; oral, 2000 mg/kg, 36 h): 1.3 per 2000 PCEs

Cc1cc(-c2nccc3c2ccn3CC(=O)Nc2ccc(-c3cnccn3)cn2)ccn1
respiratory thoracic mediastinal TEAEs (healthy human volunteers; oral, 5 mg once daily, 14 days, multiple ascending dose): 12.5%

CC[C@H](C)[C@H](NC(=O)[C@H](Cc1ccccc1)NC(=O)[C@H](CCC(=O)O)NC(=O)[C@H](CCCCNC(=O)COCCOCCNC(=O)COCCOCCNC(=O)CC[C@H](NC(=O)CCCCCCCCCCCCCCCCC(=O)O)C(=O)O)NC(=O)[C@H](C)NC(=O)[C@H](C)NC(=O)[C@H](CCC(N)=O)NC(=O)CNC(=O)[C@H](CCC(=O)O)NC(=O)[C@H](CC(C)C)NC(=O)[C@H](Cc1ccc(O)cc1)NC(=O)[C@H](CO)NC(=O)[C@H](CO)NC(=O)[C@@H](NC(=O)[C@H](CC(=O)O)NC(=O)[C@H](CO)NC(=O)[C@@H](NC(=O)[C@H](Cc1ccccc1)NC(=O)[C@@H](NC(=O)CNC(=O)[C@H](CCC(=O)O)NC(=O)C(C)(C)NC(=O)[C@@H](N)Cc1cnc[nH]1)[C@@H](C)O)[C@@H](C)O)C(C)C)C(=O)N[C@@H](C)C(=O)N[C@@H](Cc1c[nH]c2ccccc12)C(=O)N[C@@H](CC(C)C)C(=O)N[C@H](C(=O)N[C@@H](CCCNC(=N)N)C(=O)NCC(=O)N[C@@H](CCCNC(=N)N)C(=O)NCC(=O)O)C(C)C
QT change from baseline (12-lead Holter ECG; healthy humans; subcutaneous, 1.5 mg once weekly, 18 h, steady state; relative to: placebo): -22.3 ms

CSc1cc(C)nc(SC)c1NC(=O)CN1CCN(CCSc2nc3ccccc3[nH]2)CC1.Cl
olfactory epithelium thickness (mouse, nasal olfactory epithelium; intranasal, 50 µL of 3.24 mg/mL in 0.01 N HCl daily, 7 days): 27.4 and 20.2 and 25.9 and 21.1 and 23.4

Cc1nc(-c2ccc(OCC(C)C)c(C#N)c2)sc1C(=O)O
body weight (KM mouse, chronic hyperuricaemia model; dose not given, day 8): 28.7 g and 32 g and 27.7 g and 32.6 g and 34.1 g and 29.2 g

O=C(COc1ccc(Cl)cc1)NC12CC(c3nnc([C@H]4C[C@@H](OC(F)(F)F)C4)o3)(C1)C2
participants with procedural pain (human both sexes; oral, 260 mg once daily, 14 days): 28.6%

O=c1oc2cc(O)ccc2c2cc(O)ccc12
CSF concentration (human CSF; concentration not given, mean): not detected

CN(C(=O)n1cnc(-c2cccnc2)c1)C1CCCCC1
tissue concentration (Wistar rat, cerebral cortex; oral, 10 mg/kg, 1 h, single dose): 76 ± 16.5 ng/g

CCN1/C(=C/C(C)=O)Sc2ccc(F)cc21
diastolic blood pressure (cynomolgus monkey; oral, 10 mg/kg, 0.5 h post-dose): 75 ± 2 mmHg

CC(C)C[C@H](NC(=O)[C@H](Cc1ccccc1)NC(=O)c1cnccn1)B(O)O
organ weight (mouse xenograft, stomach; dose not given): 126 mg

COCCOc1cnc2ccn([C@H](C)c3nnc4c(F)cc(-c5cnn(C)c5)cn34)c(=O)c2c1
Ctrough (patients; oral, 300 mg once daily, day 28, 24 h postdose, dose escalation): 560 ng/mL

O=C(O)[C@H]1O[C@@H](Oc2cc(O)c3c(=O)c(O)c(-c4ccc(O)c(O)c4)oc3c2)[C@H](O)[C@@H](O)[C@@H]1O
CSF concentration (human CSF; concentration not given, mean): not detected

COc1cc(Nc2ncc3c(n2)-c2ccc(Cl)cc2C(c2c(F)cccc2OC)=NC3)ccc1C(=O)O
patients with adverse event (item: Hyperkalemia, grade 1; cancer patients, phase 1/2; oral, dose not given, added: pembrolizumab): 13%

C=CCn1c(=O)c2cnc(Nc3ccc(N4CCN(C)CC4)cc3)nc2n1-c1cccc(C(C)(C)O)n1
Tmax (human, plasma; oral, 200 mg once daily, -5-day lead-in, monotherapy lead-in): 2 h

Nc1ncnc2c1ncn2[C@H]1C[C@@H]2OP(=O)(O)OC[C@H]3O[C@@H](n4cnc5c(N)ncnc54)C[C@@H]3OP(=O)(O)OC[C@H]2O1
triglycerides (non-tumor-bearing mice, serum; intravenous, 1 mg/kg, toxicity study): 1.71 ± 0.09 mmol/L

CCC(C)n1ncn(-c2ccc(N3CCN(c4ccc(OCC5COC(Cn6cncn6)(c6ccc(Cl)cc6Cl)O5)cc4)CC3)cc2)c1=O (centres unmarked)
incidence of ALT increased (healthy human volunteers; oral, 200 mg, compound alone cohort): 7%

COc1cc2c3cc1Oc1c(OC)c(OC)cc4c1[C@@H](Cc1ccc(O)c(c1)Oc1ccc(cc1)C[C@@H]3N(C)CC2)N(C)CC4
remaining compound (mouse plasma, K3EDTA; 0 h, on ice): 100%

Cc1ncnc2c1ccn2[C@@H]1C[C@H](Oc2cc(C(F)F)c(F)c3c2CNCC3)[C@@H](O)[C@H]1O
AUC(0-tau) (human; oral, 0.5 mg twice daily): 45.5 ng·h/mL

Repeated from above:
CNC(=O)c1ccc(-c2cnc3ncc(Cc4ccc5ncccc5c4)n3n2)cc1F
AUC(0-inf) (human, plasma; oral, 200 mg, mean): 5630 ng·h/mL

COc1cc2c3cc1Oc1c(OC)c(OC)cc4c1[C@@H](Cc1ccc(O)c(c1)Oc1ccc(cc1)C[C@@H]3N(C)CC2)N(C)CC4
remaining compound (mouse plasma, K3EDTA; 0 h, on ice): 100%
